Published values of several laboratories.
Numbered parts are unrelated; each lists some results of a single study. “And” joins repeats or separate records; there may be more than shown.
Chain of UniProt Q9BUB5 (whole entry, looked up): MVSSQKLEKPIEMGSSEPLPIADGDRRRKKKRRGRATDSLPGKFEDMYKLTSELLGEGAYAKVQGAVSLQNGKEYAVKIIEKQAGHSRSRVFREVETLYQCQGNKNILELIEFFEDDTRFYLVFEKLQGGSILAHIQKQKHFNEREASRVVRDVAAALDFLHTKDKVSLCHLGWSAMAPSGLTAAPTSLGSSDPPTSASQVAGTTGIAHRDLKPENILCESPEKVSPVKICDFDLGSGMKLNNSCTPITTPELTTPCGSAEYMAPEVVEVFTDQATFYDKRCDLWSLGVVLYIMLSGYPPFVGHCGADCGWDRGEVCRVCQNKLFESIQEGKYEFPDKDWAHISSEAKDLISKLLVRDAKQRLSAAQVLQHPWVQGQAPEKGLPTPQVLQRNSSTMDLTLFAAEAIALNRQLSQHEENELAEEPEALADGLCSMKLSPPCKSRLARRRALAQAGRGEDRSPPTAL
Chain of UniProt Q9HBY8 (whole entry, looked up): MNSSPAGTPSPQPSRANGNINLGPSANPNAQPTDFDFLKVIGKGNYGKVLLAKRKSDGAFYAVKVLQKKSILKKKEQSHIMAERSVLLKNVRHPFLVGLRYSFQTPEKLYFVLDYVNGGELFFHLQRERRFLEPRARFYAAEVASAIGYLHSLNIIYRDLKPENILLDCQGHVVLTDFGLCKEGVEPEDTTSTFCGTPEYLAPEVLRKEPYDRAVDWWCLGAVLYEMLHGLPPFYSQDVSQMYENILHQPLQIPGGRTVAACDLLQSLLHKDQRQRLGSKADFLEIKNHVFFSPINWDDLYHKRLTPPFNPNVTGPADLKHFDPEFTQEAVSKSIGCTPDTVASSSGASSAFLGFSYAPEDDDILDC
Chain of UniProt P00519 (whole entry, looked up): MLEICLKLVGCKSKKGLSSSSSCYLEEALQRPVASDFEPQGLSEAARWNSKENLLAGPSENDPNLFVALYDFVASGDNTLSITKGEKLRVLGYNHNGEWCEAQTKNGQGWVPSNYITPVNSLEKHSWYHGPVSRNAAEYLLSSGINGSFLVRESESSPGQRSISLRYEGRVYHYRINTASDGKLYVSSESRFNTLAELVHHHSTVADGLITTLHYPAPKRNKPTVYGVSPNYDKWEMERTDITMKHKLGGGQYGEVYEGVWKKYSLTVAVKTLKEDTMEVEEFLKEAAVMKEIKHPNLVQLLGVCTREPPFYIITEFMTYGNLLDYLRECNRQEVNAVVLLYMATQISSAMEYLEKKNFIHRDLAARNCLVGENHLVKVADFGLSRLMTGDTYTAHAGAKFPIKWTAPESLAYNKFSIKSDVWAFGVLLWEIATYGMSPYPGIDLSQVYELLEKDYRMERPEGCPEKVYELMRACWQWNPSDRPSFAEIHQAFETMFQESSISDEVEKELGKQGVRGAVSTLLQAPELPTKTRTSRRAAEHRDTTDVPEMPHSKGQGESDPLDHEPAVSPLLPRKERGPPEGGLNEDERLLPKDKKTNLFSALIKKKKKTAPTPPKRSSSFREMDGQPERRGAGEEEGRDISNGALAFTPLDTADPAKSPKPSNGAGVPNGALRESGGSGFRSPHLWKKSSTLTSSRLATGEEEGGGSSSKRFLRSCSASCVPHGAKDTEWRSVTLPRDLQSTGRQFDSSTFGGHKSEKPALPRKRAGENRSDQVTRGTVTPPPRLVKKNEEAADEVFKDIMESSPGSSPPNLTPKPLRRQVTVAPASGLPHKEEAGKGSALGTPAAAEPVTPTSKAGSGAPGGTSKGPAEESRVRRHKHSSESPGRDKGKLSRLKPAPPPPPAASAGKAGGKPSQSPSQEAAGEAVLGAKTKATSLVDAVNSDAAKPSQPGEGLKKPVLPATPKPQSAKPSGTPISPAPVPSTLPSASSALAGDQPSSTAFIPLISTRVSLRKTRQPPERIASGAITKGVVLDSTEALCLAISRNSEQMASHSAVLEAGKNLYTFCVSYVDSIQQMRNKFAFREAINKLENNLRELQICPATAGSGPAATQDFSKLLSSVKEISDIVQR
Chain of UniProt P27037 (whole entry, looked up): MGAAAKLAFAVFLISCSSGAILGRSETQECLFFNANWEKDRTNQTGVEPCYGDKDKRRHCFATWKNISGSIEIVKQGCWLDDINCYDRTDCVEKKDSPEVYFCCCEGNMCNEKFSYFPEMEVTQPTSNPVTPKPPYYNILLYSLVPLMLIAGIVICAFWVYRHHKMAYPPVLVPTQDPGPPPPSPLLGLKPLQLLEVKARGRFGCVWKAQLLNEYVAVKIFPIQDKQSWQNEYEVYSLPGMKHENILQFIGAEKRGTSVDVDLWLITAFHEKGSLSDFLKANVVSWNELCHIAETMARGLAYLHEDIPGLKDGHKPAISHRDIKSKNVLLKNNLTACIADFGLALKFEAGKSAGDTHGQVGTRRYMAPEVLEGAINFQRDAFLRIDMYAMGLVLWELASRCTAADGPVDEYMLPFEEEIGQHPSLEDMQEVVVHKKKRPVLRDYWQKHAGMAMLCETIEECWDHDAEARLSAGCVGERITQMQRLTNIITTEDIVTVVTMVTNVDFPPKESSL
Chain of UniProt Q9H422 (whole entry, looked up): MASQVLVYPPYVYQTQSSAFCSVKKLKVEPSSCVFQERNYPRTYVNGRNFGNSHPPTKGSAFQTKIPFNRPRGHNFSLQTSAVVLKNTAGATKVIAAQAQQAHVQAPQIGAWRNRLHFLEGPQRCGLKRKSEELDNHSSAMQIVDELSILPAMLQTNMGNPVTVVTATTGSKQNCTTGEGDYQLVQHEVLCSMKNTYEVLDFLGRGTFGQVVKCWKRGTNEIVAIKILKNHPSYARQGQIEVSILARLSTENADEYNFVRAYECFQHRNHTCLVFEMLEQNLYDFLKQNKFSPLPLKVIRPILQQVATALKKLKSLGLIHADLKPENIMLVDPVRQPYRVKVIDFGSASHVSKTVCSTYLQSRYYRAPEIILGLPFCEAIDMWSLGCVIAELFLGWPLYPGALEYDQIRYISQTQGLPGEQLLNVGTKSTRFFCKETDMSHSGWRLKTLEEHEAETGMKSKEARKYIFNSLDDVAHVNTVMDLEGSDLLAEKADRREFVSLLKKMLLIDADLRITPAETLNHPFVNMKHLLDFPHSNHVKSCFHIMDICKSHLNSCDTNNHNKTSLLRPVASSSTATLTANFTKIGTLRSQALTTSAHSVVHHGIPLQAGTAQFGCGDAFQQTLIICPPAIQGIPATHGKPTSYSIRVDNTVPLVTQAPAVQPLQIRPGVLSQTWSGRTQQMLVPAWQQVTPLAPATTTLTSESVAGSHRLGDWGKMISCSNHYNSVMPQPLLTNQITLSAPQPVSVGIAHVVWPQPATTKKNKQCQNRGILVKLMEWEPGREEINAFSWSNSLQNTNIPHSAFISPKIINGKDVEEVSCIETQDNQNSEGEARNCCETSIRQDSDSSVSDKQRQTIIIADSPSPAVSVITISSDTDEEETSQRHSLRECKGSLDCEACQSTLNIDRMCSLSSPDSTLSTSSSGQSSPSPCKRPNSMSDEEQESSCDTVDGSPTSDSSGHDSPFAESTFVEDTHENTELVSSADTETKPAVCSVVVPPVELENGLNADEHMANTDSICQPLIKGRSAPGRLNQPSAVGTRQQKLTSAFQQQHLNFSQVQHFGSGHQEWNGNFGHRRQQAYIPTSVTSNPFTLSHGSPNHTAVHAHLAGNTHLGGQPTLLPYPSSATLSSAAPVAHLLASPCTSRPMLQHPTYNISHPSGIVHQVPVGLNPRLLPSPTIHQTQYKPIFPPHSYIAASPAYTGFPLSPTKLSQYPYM
Chain of UniProt P10721 (whole entry, unmodified, looked up): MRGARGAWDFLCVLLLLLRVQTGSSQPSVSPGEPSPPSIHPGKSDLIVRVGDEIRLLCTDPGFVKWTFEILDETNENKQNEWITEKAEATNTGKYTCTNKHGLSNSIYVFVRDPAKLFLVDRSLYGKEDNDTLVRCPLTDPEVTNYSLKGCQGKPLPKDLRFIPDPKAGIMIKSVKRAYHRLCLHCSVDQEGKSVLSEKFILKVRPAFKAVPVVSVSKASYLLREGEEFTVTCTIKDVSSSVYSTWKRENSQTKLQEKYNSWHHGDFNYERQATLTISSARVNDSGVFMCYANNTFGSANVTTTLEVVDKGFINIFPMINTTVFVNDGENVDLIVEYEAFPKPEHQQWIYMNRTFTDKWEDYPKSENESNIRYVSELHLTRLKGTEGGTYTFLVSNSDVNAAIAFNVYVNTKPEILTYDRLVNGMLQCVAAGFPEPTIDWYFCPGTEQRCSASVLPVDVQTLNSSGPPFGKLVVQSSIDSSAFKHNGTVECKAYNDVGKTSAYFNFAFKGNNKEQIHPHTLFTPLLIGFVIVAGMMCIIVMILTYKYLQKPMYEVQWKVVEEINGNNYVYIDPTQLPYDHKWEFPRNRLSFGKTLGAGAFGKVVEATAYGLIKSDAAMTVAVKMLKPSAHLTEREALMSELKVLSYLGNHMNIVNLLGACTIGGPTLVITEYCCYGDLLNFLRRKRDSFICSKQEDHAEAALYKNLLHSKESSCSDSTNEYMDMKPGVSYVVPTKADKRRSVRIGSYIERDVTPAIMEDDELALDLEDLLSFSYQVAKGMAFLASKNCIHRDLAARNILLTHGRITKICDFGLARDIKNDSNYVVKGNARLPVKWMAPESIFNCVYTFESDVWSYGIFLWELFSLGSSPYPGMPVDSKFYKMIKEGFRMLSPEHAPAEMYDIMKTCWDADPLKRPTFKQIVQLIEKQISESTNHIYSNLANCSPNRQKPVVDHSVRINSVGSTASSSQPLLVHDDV
Chain of UniProt Q96GD4 (whole entry, looked up): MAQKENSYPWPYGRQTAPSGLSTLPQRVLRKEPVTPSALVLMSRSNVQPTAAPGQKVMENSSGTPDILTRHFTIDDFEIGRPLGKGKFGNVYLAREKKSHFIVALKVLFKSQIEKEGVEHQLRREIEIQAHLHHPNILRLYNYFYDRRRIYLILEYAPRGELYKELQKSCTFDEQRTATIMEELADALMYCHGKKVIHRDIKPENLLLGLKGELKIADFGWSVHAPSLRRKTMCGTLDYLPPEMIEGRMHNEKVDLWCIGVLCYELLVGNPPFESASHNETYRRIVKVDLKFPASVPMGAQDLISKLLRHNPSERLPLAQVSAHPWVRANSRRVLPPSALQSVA

Set 1
SMILES: CCOc1ccc(Nc2c3c(nc4ccccc24)CCC3)cc1
For HEK293; resazurin; 0.66 µM, 10% serum: cytotoxicity read 11% and 12%.
HEK293; resazurin; 0.066 µM, 10% serum — cytotoxicity: 1% and 3%.
J774.1; resazurin; 0.66 µM — cytotoxicity: -3% and -5%.
The cytotoxicity was 0% and 3% (J774.1; resazurin; 0.0066 µM, 64 h).
It gave 4% and 5% for cytotoxicity (PMA-differentiated THP-1 macrophages; 0.004 µM, 64 h).
It gave -2% and 1% for cytotoxicity (HepG2; resazurin; 0.00332 µM, 48 h).
For PMA-differentiated THP-1 macrophages; 0.08 µM, 64 h: cytotoxicity read -1% and 6%.
RAW264.7; resazurin; 0.166 µM — cytotoxicity: 0% and -1%.
The cytotoxicity was 3% and -2% (HEK293; resazurin; 0.0166 µM, 10% serum).

Set 2
Target: GTPase HRas (HRAS, Homo sapiens, UniProt P01112)
Observed: binding
Technique: NanoBRET
Cell line: HEK293 (live)
Tested at: 0.09151 µM
Reading: lower = stronger binding
The target engagement of CC(C)C(=O)N1CCN(c2nc(OC[C@@H]3CCCN3C)nc3c2CCN(c2cccc4cccc(Cl)c24)C3)C[C@@H]1CC#N is reported as 100% and 104% and 96.3%.
CCC(=O)N1CCN(c2nc(OC[C@@H]3CCCN3C)nc3c2CCN(c2cccc4cccc(Cl)c24)C3)C[C@@H]1CC#N has a target engagement of 96.3% and 101% and 100%.
CC(=O)N1CCN(c2nc(OC[C@@H]3CCCN3C)nc3c2CCN(c2cccc4cccc(Cl)c24)C3)C[C@@H]1CC#N has a target engagement of 102% and 92.9% and 100%.
CN1CCC[C@H]1COc1nc2c(c(N3CCN(S(C)(=O)=O)[C@@H](CC#N)C3)n1)CCN(c1cccc3cccc(Cl)c13)C2 gave a target engagement of 98.5% and 85% and 80.9%.

Set 3
SMILES: COc1cc(-c2cn(C3CCc4ccccc4N(CC(F)(F)F)C3=O)nn2)ccc1-n1ccc(C)n1 (stereo not shown)
Technique: competition with immobilised ligand
Tested at: 1 µM
For HIPK3 (Homo sapiens, UniProt Q9H422); cell-free assay: remaining binding read 83%.
The remaining binding was 80% (FLT3 (Homo sapiens, UniProt P36888, D835V); cell-free assay).
The remaining binding was 73% (MYLK2 (Homo sapiens, UniProt Q9H1R3); binding).
Macrophage colony-stimulating factor 1 receptor, autoinhibited (CSF1R, Homo sapiens, UniProt P07333); cell-free assay — remaining binding: 93%.
It gave 75% for remaining binding (KIT (Homo sapiens, UniProt P10721, D816H); cell-free assay).
CDK2 (Homo sapiens, UniProt P24941); cell-free assay — remaining binding: 100%.
The remaining binding was 87% (EIF2AK2 (Homo sapiens, UniProt P19525); cell-free assay).
For CLK2 (Homo sapiens, UniProt P49760); cell-free assay: remaining binding read 100%.
Tyrosine-protein kinase ABL1, phosphorylated (ABL1, Homo sapiens, UniProt P00519); cell-free assay — remaining binding: 75%.
For EGFR (Homo sapiens, UniProt P00533, A750P/del747-749); cell-free assay: remaining binding read 100%.
For CDK14 (Homo sapiens, UniProt O94921); cell-free assay: remaining binding read 100%.
It gave 91% for remaining binding (IRAK3 (Homo sapiens, UniProt Q9Y616); cell-free assay).
For MKNK1 (Homo sapiens, UniProt Q9BUB5); cell-free assay: remaining binding read 78%.
For CAMK4 (Homo sapiens, UniProt Q16566); cell-free assay: remaining binding read 100%.
It gave 97% for remaining binding (CDK11A (Homo sapiens, UniProt Q9UQ88); binding).
The remaining binding was 95% (PRKX (Homo sapiens, UniProt P51817); cell-free assay).
It gave 89% for remaining binding (Aurora kinase B (AURKB, Homo sapiens, UniProt Q96GD4); cell-free assay).
It gave 100% for remaining binding (SGK2 (Homo sapiens, UniProt Q9HBY8); cell-free assay).
It gave 68% for remaining binding (IKBKE (Homo sapiens, UniProt Q14164); cell-free assay).
For CSNK1E (Homo sapiens, UniProt P49674); cell-free assay: remaining binding read 100%.
The remaining binding was 100% (ROCK2 (Homo sapiens, UniProt O75116); cell-free assay).
The remaining binding was 100% (ACVR2A (Homo sapiens, UniProt P27037); cell-free assay).
FLT3 (Homo sapiens, UniProt P36888, D835Y); cell-free assay — remaining binding: 92%.
For EGFR (Homo sapiens, UniProt P00533, del747-752/P753S); cell-free assay: remaining binding read 100%.

Set 4
Target: Cyclin-dependent kinase 2, with cyclin A (CDK2, Homo sapiens, UniProt P24941)
Observed: enzyme activity
Action: inhibitor
Tested at: 0.5 µM
Relative to: control
With Cn1nc2c3c(cccc31)C(=O)c1ccccc1-2 the remaining activity was 105%.
The remaining activity of O=C(NC(NC(=S)Nc1ccc(F)c([N+](=O)[O-])c1)C(Cl)(Cl)Cl)C(c1ccccc1)c1ccccc1 (stereo not shown) is reported as 102%.
The remaining activity of Cc1cn(-c2cc(NC(=O)c3ccc(C)c(Nc4nccc(-c5cccnc5)n4)c3)cc(C(F)(F)F)c2)cn1 is reported as 95.5%.
The remaining activity of CCOc1nc(NC(=O)Cc2cc(OC)ccc2OC)cc(N)c1C#N is reported as 104%.
N#C/C(=C\c1ccc(O)c(O)c1)C(=O)NCc1ccccc1 has a remaining activity of 99.2%.
Cc1nc2cc3nc(-c4cccs4)cnc3cc2n1C gave a remaining activity of 104%.
With O=C(Nc1cccc(Nc2nccc(Nc3cccc(C(F)(F)F)c3)n2)c1)C1CC1 the remaining activity was 98.2%.
For O=C1C(Cl)=C(N2C(=O)CCC2=O)C(=O)c2ccccc21, the remaining activity was 109%.
The remaining activity of COc1cc2ncnc(Nc3ccc(O)c(Br)c3)c2cc1OC is reported as 88.7%.
With Ic1cccc(CSc2nnc(-c3ccncc3)o2)c1 the remaining activity was 100%.
CCN(CC)CCNC(=O)c1c(C)[nH]c(/C=C2\C(=O)Nc3ccc(Cl)cc32)c1C has a remaining activity of 92.8%.
For C[C@@H]1CCN(C(=O)CC#N)C[C@@H]1N(C)c1ncnc2[nH]ccc12, the remaining activity was 89.5%.
With CN([C@@H](Cc1ccc(OS(=O)(=O)c2cccc3cnccc23)cc1)C(=O)N1CCN(c2ccccc2)CC1)S(=O)(=O)c1cccc2cnccc12 the remaining activity was 99.8%.
CN(C)C[C@H]1CCn2c(c(C3=C(c4cn(C)c5ccccc45)C(=O)NC3=O)c3ccccc32)C1 has a remaining activity of 76.2%.
c1ccc(-c2cnc(Nc3ccc(OCCN4CCCC4)cc3)s2)cc1 has a remaining activity of 85.2%.
With Cc1cc2ncc(-c3ccccc3)nc2cc1C the remaining activity was 99.3%.
Nc1cccc(-c2cc3c(Oc4cccc(O)c4)ncnc3[nH]2)c1 has a remaining activity of 88.5%.
The remaining activity of CCN(CC)C(=O)c1ccc(Nc2nc(OCC3CCCCC3)c3[nH]cnc3n2)cc1 is reported as 55.8%.
The remaining activity of O=c1cc(-c2cccc3c2Sc2ccccc2S3)oc(N2CCOCC2)c1 is reported as 101%.
O=C1c2ccccc2-c2n[nH]c3cccc1c23 has a remaining activity of 76.1%.
O=C1c2ccccc2-[n+]2ccc3c([nH]c4ccccc43)c21 gave a remaining activity of 72.4%.

Some of these lines once more (set 3):
For MKNK1 (Homo sapiens, UniProt Q9BUB5); cell-free assay: remaining binding read 78%.
For CAMK4 (Homo sapiens, UniProt Q16566); cell-free assay: remaining binding read 100%.
It gave 97% for remaining binding (CDK11A (Homo sapiens, UniProt Q9UQ88); binding).
The remaining binding was 95% (PRKX (Homo sapiens, UniProt P51817); cell-free assay).
It gave 89% for remaining binding (Aurora kinase B (AURKB, Homo sapiens, UniProt Q96GD4); cell-free assay).
It gave 100% for remaining binding (SGK2 (Homo sapiens, UniProt Q9HBY8); cell-free assay).
It gave 68% for remaining binding (IKBKE (Homo sapiens, UniProt Q14164); cell-free assay).
For CSNK1E (Homo sapiens, UniProt P49674); cell-free assay: remaining binding read 100%.
